Values quoted from earlier work as cited in several papers.
Each line is one published result; not all experiments were run side by side. ± marks the error that the study gave.

The chains behind the UniProt entries cited, without tags or fusion partners. Where a name states a change or a piece, a line headed by the entry shows the natural chain unless it says otherwise. Residues count along the entry.
UniProt P29473, whole entry: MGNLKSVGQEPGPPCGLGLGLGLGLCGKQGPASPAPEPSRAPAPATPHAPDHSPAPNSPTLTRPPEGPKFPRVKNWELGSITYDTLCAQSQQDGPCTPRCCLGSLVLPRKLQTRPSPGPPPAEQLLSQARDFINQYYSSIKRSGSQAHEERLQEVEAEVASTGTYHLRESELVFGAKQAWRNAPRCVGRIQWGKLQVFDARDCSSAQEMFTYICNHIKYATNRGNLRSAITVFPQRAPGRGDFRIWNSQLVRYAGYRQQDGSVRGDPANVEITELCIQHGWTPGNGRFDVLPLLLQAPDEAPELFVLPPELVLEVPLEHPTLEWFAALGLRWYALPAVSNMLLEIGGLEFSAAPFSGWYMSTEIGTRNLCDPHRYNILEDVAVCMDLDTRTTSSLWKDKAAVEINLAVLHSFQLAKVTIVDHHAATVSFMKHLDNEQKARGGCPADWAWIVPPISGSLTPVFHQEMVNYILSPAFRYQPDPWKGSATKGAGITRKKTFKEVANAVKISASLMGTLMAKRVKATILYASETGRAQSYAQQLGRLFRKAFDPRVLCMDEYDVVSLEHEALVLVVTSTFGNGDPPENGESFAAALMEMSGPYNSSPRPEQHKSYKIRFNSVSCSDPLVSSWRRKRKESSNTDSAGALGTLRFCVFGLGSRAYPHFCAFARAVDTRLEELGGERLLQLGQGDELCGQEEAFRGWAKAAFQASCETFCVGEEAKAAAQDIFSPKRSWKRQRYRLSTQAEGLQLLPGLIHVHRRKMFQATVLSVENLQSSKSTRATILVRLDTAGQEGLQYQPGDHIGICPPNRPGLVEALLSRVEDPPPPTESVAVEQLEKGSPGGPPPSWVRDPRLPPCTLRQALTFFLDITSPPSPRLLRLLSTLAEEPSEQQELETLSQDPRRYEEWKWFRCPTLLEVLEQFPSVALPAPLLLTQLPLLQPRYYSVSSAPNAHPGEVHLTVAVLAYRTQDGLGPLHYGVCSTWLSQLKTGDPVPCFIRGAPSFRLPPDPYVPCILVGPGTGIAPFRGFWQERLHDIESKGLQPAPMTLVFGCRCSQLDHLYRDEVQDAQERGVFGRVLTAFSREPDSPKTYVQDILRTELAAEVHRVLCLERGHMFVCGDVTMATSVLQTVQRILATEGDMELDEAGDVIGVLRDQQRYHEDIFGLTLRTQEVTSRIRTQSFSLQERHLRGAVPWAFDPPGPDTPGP
UniProt P19256, 29-250 limits assumed: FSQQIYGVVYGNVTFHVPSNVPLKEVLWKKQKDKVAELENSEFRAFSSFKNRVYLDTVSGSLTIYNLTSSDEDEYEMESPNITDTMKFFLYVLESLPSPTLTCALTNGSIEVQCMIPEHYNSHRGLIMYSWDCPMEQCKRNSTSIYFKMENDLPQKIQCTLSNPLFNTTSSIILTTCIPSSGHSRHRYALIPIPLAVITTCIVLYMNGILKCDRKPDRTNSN
UniProt P29474, whole entry: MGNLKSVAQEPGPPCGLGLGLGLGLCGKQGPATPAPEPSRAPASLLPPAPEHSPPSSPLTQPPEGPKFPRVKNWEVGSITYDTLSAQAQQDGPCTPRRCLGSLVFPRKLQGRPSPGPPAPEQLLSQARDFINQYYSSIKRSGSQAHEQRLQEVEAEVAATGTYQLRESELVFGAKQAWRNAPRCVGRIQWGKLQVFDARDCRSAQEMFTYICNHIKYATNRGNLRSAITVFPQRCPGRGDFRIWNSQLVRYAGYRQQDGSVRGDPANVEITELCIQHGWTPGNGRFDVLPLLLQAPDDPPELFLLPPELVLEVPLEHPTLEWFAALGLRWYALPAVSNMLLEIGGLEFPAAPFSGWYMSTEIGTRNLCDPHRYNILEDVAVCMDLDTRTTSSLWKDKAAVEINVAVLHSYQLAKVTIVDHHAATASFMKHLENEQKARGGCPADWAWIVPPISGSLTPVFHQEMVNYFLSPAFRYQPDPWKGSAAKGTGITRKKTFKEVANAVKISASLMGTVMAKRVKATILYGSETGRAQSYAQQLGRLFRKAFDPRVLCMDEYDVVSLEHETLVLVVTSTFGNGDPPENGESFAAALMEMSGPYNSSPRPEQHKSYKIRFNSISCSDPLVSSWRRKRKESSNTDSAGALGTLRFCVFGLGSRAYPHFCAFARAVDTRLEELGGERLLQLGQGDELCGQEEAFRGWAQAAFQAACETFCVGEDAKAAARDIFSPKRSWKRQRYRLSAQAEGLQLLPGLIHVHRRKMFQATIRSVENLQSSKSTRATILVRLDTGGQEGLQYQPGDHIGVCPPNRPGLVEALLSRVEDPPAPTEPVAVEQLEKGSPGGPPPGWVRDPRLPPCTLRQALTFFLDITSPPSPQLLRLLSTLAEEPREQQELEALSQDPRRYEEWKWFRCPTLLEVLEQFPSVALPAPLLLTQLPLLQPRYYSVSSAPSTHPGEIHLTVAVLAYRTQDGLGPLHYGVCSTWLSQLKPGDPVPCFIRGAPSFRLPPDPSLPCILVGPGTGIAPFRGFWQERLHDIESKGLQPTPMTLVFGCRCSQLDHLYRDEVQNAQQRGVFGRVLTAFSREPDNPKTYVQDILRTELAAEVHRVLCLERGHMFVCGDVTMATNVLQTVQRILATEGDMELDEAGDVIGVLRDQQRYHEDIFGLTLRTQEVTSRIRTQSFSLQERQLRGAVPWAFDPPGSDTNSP
UniProt P00533, whole entry, looked up, stated change not applied: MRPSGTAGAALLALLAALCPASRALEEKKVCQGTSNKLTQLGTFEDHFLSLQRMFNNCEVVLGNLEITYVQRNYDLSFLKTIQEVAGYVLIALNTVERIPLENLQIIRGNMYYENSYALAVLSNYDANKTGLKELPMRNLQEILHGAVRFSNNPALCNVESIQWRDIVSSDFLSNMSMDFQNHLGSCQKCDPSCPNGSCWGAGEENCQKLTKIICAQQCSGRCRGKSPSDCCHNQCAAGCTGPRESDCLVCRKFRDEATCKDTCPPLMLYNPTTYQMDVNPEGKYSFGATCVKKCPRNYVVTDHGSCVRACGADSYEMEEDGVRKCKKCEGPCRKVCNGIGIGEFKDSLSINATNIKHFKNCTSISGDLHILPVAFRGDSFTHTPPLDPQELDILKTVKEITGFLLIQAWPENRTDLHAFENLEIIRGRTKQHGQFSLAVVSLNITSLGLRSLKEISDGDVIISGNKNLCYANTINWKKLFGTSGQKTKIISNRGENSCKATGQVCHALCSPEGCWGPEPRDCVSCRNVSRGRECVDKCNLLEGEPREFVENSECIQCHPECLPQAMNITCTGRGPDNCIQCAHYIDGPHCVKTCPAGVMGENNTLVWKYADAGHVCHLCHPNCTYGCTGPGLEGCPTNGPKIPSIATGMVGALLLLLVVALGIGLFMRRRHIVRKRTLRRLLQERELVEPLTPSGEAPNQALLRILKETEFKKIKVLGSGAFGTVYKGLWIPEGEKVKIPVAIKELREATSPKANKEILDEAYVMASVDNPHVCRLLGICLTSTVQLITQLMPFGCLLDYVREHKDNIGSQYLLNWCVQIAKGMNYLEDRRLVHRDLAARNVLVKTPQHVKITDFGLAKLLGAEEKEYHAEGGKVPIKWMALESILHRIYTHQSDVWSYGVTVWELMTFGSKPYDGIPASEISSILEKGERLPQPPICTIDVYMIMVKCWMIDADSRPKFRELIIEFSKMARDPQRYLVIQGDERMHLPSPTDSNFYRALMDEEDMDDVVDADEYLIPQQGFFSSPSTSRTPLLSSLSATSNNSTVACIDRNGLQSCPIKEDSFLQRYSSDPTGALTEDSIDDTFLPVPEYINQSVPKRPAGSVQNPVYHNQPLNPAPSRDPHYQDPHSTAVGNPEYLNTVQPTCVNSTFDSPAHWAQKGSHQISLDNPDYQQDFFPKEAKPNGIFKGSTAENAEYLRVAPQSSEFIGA
UniProt P06729, 25-351 partner limits assumed: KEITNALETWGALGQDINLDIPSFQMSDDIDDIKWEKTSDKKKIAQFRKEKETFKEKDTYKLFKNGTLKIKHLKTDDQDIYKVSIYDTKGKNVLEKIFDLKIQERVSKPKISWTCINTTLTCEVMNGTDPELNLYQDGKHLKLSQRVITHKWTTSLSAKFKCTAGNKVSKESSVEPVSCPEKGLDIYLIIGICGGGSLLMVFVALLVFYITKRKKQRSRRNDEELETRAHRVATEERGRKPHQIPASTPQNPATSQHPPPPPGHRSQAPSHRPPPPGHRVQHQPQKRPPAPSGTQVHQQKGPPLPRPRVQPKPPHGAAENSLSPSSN

Compound | tested on | assay | system | setting | endpoint | result
Cc1ccc([C@H](CC(=O)O)NC(=O)Nc2c(O)c(C)cn(Cc3ccccc3Cl)c2=O)cc1 | – | – | human clinical trials | oral | tolerability | not toxic
CCC1(c2ccccc2)C(=O)NC(=O)NC1=O | – | – | rat lithium-pilocarpine status epilepticus | 40 mg/kg, 30 min after SE onset | convulsive seizure suppression | no effect
O=C(CC[C@H](Cc1ccc(C(=O)O)cc1)C(=O)O)NO | glutamate carboxypeptidase II | enzyme activity, inhibitor, radioenzymatic or HPLC | – | – | IC50 | 20 nM
C/C(=N\Nc1nc2ccccc2n1C)c1ccccn1 | MCF7 | – | – | – | IC50 | 22 nM
Cc1cc(N)nc(CCc2cccc(C(O)Cc3cc(C)cc(N)n3)c2)c1 (stereo not drawn) | NOS3 (Bos taurus, UniProt P29473) | – | – | – | Ki | 2680 nM
C[C@@H]1NC(=O)[C@H](CCCCN)NC(=O)[C@@H]2CSSC[C@H](NC(=O)[C@H](CO)NC(=O)[C@@H]3CCCN3C(=O)[C@@H]3CCCN3C(=O)[C@H](C)NC(=O)[C@H](CO)NC1=O)C(=O)N[C@@H](Cc1ccc(O)cc1)C(=O)N[C@@H](CC(=O)O)C(=O)NCC(=O)N[C@@H](CC(=O)O)C(=O)N[C@@H](CC(=O)O)C(=O)N2 | Lymphocyte function-associated antigen 3, with CD2 (CD58, Homo sapiens, UniProt P19256) | cell adhesion, inhibitor | Jurkat on HFLS-RA | – | IC50 | 51 ± 25 nM
O=C(Nc1ccc(-c2nc3ccccc3s2)cc1)C1CCN(S(=O)(=O)c2ccccc2Cl)CC1 | – | – | rat liver microsomes | – | apparent intrinsic clearance | 157 µL/min/mg
Cc1cc(N)nc(CCc2cccc(C(CN)Cc3cc(C)cc(N)n3)c2)c1 (stereo not drawn) | NOS3 (Homo sapiens, UniProt P29474) | – | – | – | Ki | 6620 nM
COc1cc(N2CCC(N3CCN(C)CC3)CC2)ccc1Nc1ncc(Cl)c(Nc2ccccc2NS(C)(=O)=O)n1 | EGFR (Homo sapiens, UniProt P00533, C797S/del746-750) | enzyme activity, inhibitor | – | Del19/C797S mutant, with: ATP at Km | IC50 | 4.36 nM

Repeated from above:
Compound | tested on | assay | system | setting | endpoint | result
O=C(Nc1ccc(-c2nc3ccccc3s2)cc1)C1CCN(S(=O)(=O)c2ccccc2Cl)CC1 | – | – | rat liver microsomes | – | apparent intrinsic clearance | 157 µL/min/mg
